Measured values pooled from the literature.
± marks the error that the study gave.

SMILES	assay	system	conditions	how to read	endpoint	value
COCCOCCOCCOCCOCCOCCOCCOCCOCCOCCOCCOCCOCCOCCOCCOCCOCCOCCOCCOCCOCCOCCNC(=O)CCC1(Cc2ccccc2)c2ccccc2-c2ccc(-c3sc(-c4c5c(c(-c6sc(-c7ccc8c(c7)C(CCC(=O)NCCOCCOCCOCCOCCOCCOCCOCCOCCOCCOCCOCCOCCOCCOCCOCCOCCOCCOCCOCCOCCOCCOC)(Cc7ccccc7)c7ccccc7-8)c7c6OCCO7)c6nsnc46)N=S=N5)c4c3OCCO4)cc21 (stereo not drawn)	ex vivo NIR-II imaging	mouse, BDS or BDL biliary atresia	iv, 15 mg/kg, 6 h, days 7 and 14		intestine to liver ratio	~0.5
COc1ccc(-c2oc3ccccc3c(=O)c2OCc2ccccc2)cc1		diabetic rat	5 mg/kg, day 14, p-nitrophenyl β-glucoside induced		blood glucose	195 ± 4.97 mg/dL
COc1cc(CN2CCN(c3ccccc3F)CC2)c2cc3[n+](cc2c1O)CCc1cc2c(cc1-3)OCO2	ABTS scavenging, absorbance		10 min		IC50	6.46 µg/mL
NS(=O)(=O)NCC(F)(F)c1ccccc1F	MES seizures	mouse	intraperitoneal		ED50	50 mg/kg
O=c1c(OCc2ccccc2)c(-c2cccc([N+](=O)[O-])c2)oc2ccccc12		diabetic rat	7.5 mg/kg, day 7, p-nitrophenyl β-glucoside induced		blood glucose	336 ± 4.48 mg/dL
COc1c2c(cc3oc(C)cc(=O)c13)O[C@H](C(C)(C)O[C@@H]1O[C@H](CO)[C@@H](O)[C@H](O)[C@H]1O)C2	analgesic effect	mouse	oral, 1 mg/kg, 1 h		hot plate latency	9.55 ± 1.89 s
Cc1cccc(O[C@H]2CCC[C@@H](C(C)CNCc3ccncc3)C2)c1 (relative stereo)		APP/PS1 mouse	dose not given, chronic treatment		plasma MIP-2 level	decreased
COc1ccc2c(c1)c(CC(=O)OCC(=O)OC(C)(C)C)c(C)n2C(=O)c1ccc(Cl)cc1	hot plate test	BALB/c mice	75 mg/kg, 120 min		latency of nociceptive response	14 ± 1.04 s
CCN1CCN(Cn2nc(C34CC5CC(CC(C5)C3)C4)n(-c3ccccc3)c2=S)CC1	paw oedema	rat	intraperitoneal, 20 mg/kg		inhibition in vivo	13.2%
CCc1nnc(NS(=O)(=O)c2ccc(NC(=S)NC(=O)/C=C/c3ccc(F)cc3)cc2)s1	immunostaining	athymic nude mouse, BE(2)-C xenograft, tumour	ip, 20 mg/kg daily, 3 weeks		cleaved caspase-3 level	increased
CC(=O)N[C@@H](CC(N)=O)C(=O)NCC(=O)N[C@@H](C)C(=O)N[C@@H](C)C(N)=O	1H NMR	sodium phosphate buffer 50 mM	pH 7.4, 46 °C		rate constant succinimide to β-Asp	1.08 h⁻¹
Cc1ccc(-c2nc3cc(C)c(C)cc3[nH]2)o1	ABTS scavenging, absorbance				IC50	1.55 µM
Cn1c(=O)n(Cc2ccc(C(=O)O)cc2)c(=O)c2cc(C#CCc3ccccc3)ccc21		female B10.RIII mice, antibody-induced arthritis	oral, 100 mg/kg twice daily, day 14, dosing from day 4	reference: vehicle	arthritic score	decreased
COc1cc(CN2CCN(c3ccccc3[N+](=O)[O-])CC2)c2cc3[n+](cc2c1O)CCc1cc2c(cc1-3)OCO2	ABTS scavenging, absorbance		10 min		IC50	8.18 µg/mL
CC(C)C[C@H](N)C(=O)N[C@@H](CO)C(=O)N[C@@H](Cc1ccccc1)C(=O)N1CCC[C@H]1C(=O)N[C@H](C(=O)N[C@H](C(=O)N[C@@H](CCCCN)C(=O)N[C@H](C(=O)N[C@@H](Cc1ccc(O)cc1)C(=O)N[C@@H](Cc1ccccc1)C(=O)O)[C@@H](C)O)[C@@H](C)O)[C@@H](C)O	radiotelemetry	mouse normotensive	intraperitoneal, 5 mg/kg every other day		systolic blood pressure decrease	~5 mmHg
Cc1cc(O)cc(O)c1C(=O)c1c2c3c(c(O)cc(C)c3oc1=O)C(=O)c1c(O)cc(O)cc1-2		Bel-7402 xenograft, mouse	intraperitoneal, 7 mg/kg, day 21		T/C	59.9%
Cc1nc(C)c(C=[N+]([O-])C(C)(C)C)nc1C	immunofluorescence, item: 3-NT	MPTP mouse model, substantia nigra	30 mg/kg	reference: sham	fluorescence intensity	216 ± 8.27%
CSCC[C@@H]1NC(=O)[C@H](CCCCN)NC(=O)[C@H]([C@@H](C)O)NC(=O)[C@H](CCCCN)NC(=O)[C@H](CC(C)C)NC(=O)[C@H](CCCCN)NC(=O)[C@H](CCCNC(=N)N)NC(=O)[C@@H]2CSSC[C@@H]3NC(=O)[C@@H]4CCCN4C(=O)[C@H](C(C)C)NC(=O)[C@H](CCC(N)=O)NC(=O)[C@H](CCC(N)=O)NC(=O)CNC(=O)[C@H](CC(C)C)NC(=O)[C@@H]4CSSC[C@H](NC(=O)[C@H]([C@@H](C)O)NC(=O)[C@H](C)NC(=O)[C@H](CSSC[C@@H](C(=O)N[C@@H](CO)C(=O)N[C@@H](CCCNC(=N)N)C(=O)N[C@H](C(N)=O)[C@@H](C)O)NC(=O)[C@@H]5CCCN5C(=O)[C@H](CC(N)=O)NC1=O)NC(=O)[C@@H]1CCCN1C(=O)[C@H](CC(=O)O)NC(=O)[C@H](CSSC[C@H](NC(=O)[C@H](CCCNC(=N)N)NC(=O)[C@H](CCCNC(=N)N)NC(=O)[C@H](CCCCN)NC(=O)[C@@H](N)CCCCN)C(=O)N[C@@H](C(C)C)C(=O)N[C@@H](CCCNC(=N)N)C(=O)N[C@@H](CC(C)C)C(=O)N[C@@H](Cc1c[nH]cn1)C(=O)N[C@@H](CCC(=O)O)C(=O)N[C@@H](CO)C(=O)N4)NC3=O)C(=O)N[C@@H](Cc1ccc(O)cc1)C(=O)N[C@H]1CSSC[C@H](NC(=O)[C@H](Cc3ccccc3)NC(=O)[C@H](C)NC(=O)[C@H](CC(N)=O)NC(=O)[C@H](Cc3ccccc3)NC(=O)[C@H](Cc3ccccc3)NC(=O)[C@H](CCCNC(=N)N)NC1=O)C(=O)N[C@@H](Cc1ccc(O)cc1)C(=O)N2		male Long-Evans rats	intracerebroventricular, 1.0 nmol, day 5	reference: saline	food intake	70.8 ± 7.6 % above saline

SMILES	assay	system	conditions	how to read	endpoint	value
CC[C@@H](C)N([11CH3])C(=O)c1nc(-c2ccccc2)c2ccccc2n1	PET from VT/fP	rhesus monkey, cerebellum	dose not given		TSPO specific binding	78%
O=c1c(OCc2ccccc2)c(-c2ccc([N+](=O)[O-])cc2)oc2ccccc12		diabetic rat	5 mg/kg, day 28, p-nitrophenyl β-glucoside induced		blood glucose	165 ± 4.88 mg/dL
C=C(c1ncc(C(=O)O)cn1)c1cc2c(cc1C)C(C)(C)CCC2(C)C	RNA sequencing, item: Emr4 mRNA	rat, brain	dose not given, 24 h, single dose	reference: vehicle	log2 fold change	0.64
O=c1c(OCc2ccccc2)c(-c2ccc(Cl)cc2)oc2ccccc12		diabetic rat	7.5 mg/kg, day 7, p-nitrophenyl β-glucoside induced		blood glucose	340 ± 4.25 mg/dL
COc1cc2c(cc1OC)-c1cc3ccc(OC)c(OC)c3c[n+]1CC2		rat, STZ-induced diabetic, serum	oral, 12 mg/kg, day 28		urea	46.1 ± 1.8 mg/dL
CC(C)[C@H](NC(=O)CN)C(=O)N[C@@H](CCCCN)C(=O)NCC(=O)N[C@@H](CC(=O)O)C(=O)N[C@@H](CCCCN)C(=O)NCC(=O)N[C@@H](CC(N)=O)C(=O)N1CCC[C@H]1C(=O)NCC(=O)N[C@@H](Cc1c[nH]c2ccccc12)C(=O)N1CCC[C@H]1C(=O)NCC(=O)N[C@@H](C)C(=O)N1CCC[C@H]1C(=O)O		C6 glioma, rat	100 µg/mL coating, peptide-coated plates	reference: input cells	cell adhesion	35.9%
Cc1cc(O)c(C=O)c2c1C(=O)Oc1c(CO)c(O)c3c(c1O2)C(O)OC3=O (stereo not drawn)	copulatory behaviour test	rat, male, streptozotocin-induced diabetes	10 mg/kg, day 63		post-ejaculatory interval	1270 ± 154 s
CCCc1nc2cc(C(=O)N3CCC4(CC3)CC(=O)c3cc5c(cc3O4)OC(C)(C)CC5)cc(C)c2[nH]1	item: α-SMA mRNA and protein	C57BL/6J male mouse, HFD-induced NASH, liver	intragastric, dose not given, daily	reference: vehicle	α-SMA level	decreased
CC(C)C[C@@H]1NC(=O)[C@@H]2CSSC[C@@H]3NC(=O)[C@H]([C@@H](C)O)NC(=O)[C@H](C)NC(=O)[C@H](C)NC(=O)[C@@H]4CCCN4C(=O)[C@H](CC(=O)O)NC(=O)[C@H](CSSC[C@H](NC(=O)[C@H](CCCNC(=N)N)NC(=O)[C@H](CCCNC(=N)N)NC(=O)[C@H](CO)NC(=O)[C@@H](N)CO)C(=O)N[C@@H](C(C)C)C(=O)N[C@@H](CCCNC(=N)N)C(=O)N[C@@H](CC(C)C)C(=O)N[C@@H](Cc4c[nH]cn4)C(=O)N[C@@H](CCC(=O)O)C(=O)N[C@@H](CO)C(=O)N2)NC(=O)[C@H](CSSC[C@@H](C(=O)N[C@@H](CCCNC(=N)N)C(N)=O)NC(=O)[C@H](Cc2ccc(O)cc2)NC(=O)[C@@H]2CSSC[C@H](NC(=O)[C@H](Cc4ccc(O)cc4)NC3=O)C(=O)N[C@@H](CCCNC(=N)N)C(=O)N[C@@H](Cc3ccccc3)C(=O)N[C@@H](Cc3ccccc3)C(=O)N[C@@H](CC(N)=O)C(=O)N[C@@H](C)C(=O)N[C@@H](Cc3ccccc3)C(=O)N2)NC(=O)[C@@H]2CCCN2C(=O)[C@H](C(C)C)NC(=O)[C@H](CCC(N)=O)NC(=O)[C@H](CCC(N)=O)NC(=O)CNC1=O		Long-Evans rat, male	intracerebroventricular, 1.0 nmol in 1.0 µL, 24 h, non-cumulative	reference: saline	food intake	64.3 ± 5.4 % above saline
CC(C)(O)c1ncc([S@](N)(=O)=NC(=O)Nc2c3c(cc4c2CCC4)CCC3)s1	IL-1β release, Bayesian PK/PD model	healthy humans, whole blood ex vivo	Emax estimated, with: LPS		Hill coefficient	0.758
O=c1cc(-c2ccc(O)cc2)oc2cc(O)c(-c3ccc(O)c(O)c3)c(O)c12	DPPH scavenging, absorbance				EC50	70 µM
CC1=C(O)C(=O)C=C2C1=CC=C1[C@@]2(C)CC[C@@]2(C)[C@@H]3C[C@](C)(C(=O)NCCOCCOCCOCCOCC(=O)N[C@H](C(=O)N4C[C@H](O)C[C@H]4C(=O)N[C@@H](C)c4ccc(-c5scnc5C)cc4)C(C)(C)C)CC[C@]3(C)CC[C@]12C	flow cytometry	mouse, Yumm1.7 melanoma model, tumour	ip, 2 doses of 1.8 mg/kg		tumour-infiltrating B cells	increased
CC[C@H](C)[C@@H]1NC(=O)[C@H](Cc2ccccc2)NC(=O)[C@H](CCC(=O)O)NC(=O)[C@H](CCCNC(=N)N)NC(=O)CNC(=O)[C@@H](NC(=O)[C@H](CC(C)C)NC(=O)[C@H](CCCNC(=N)N)NC(=O)[C@@H](NC(=O)CNC(=O)[C@H](Cc2ccc(O)cc2)NC(=O)[C@@H]2CCCN2C(=O)[C@H](C)NC(=O)[C@H](C)NC(=O)[C@@H](N)CCCNC(=N)N)C(C)C)CSSC[C@@H]2NC(=O)[C@@H](NC(=O)[C@H](CO)NC(=O)[C@H](CO)NC(=O)[C@H](CO)NC(=O)[C@H](CC(C)C)NC(=O)CNC(=O)[C@H](C)NC(=O)[C@H](CC(C)C)NC(=O)[C@@H](NC(=O)[C@@H](N)CC(=O)O)C(C)C)CSSC[C@H](NC(=O)CNC(=O)[C@H](Cc3c[nH]c4ccccc34)NC(=O)[C@H](CCCCN)NC2=O)C(=O)N[C@@H](CO)C(=O)N[C@@H](CCCCN)C(=O)N[C@@H](CO)C(=O)N[C@@H](CCC(=O)O)C(=O)N[C@@H]([C@@H](C)CC)C(=O)N[C@@H](CO)C(=O)N[C@@H](CO)C(=O)N[C@@H](CC(C)C)C(=O)N[C@H](C(=O)O)CSSC[C@@H](C(=O)NCC(=O)NCC(=O)N[C@@H](CO)C(=O)N[C@@H](CCCNC(=N)N)C(=O)N[C@@H](Cc2c[nH]c3ccccc23)C(=O)O)NC(=O)[C@H]([C@@H](C)O)NC(=O)[C@H](Cc2ccccc2)NC(=O)[C@H]([C@@H](C)CC)NC(=O)[C@H](C(C)C)NC(=O)[C@H](C)NC(=O)[C@H](CCCNC(=N)N)NC1=O		satiated male Sprague-Dawley rats	intracerebroventricular, 0.1 nmol, 0 to 1 h, early light phase		food intake	3.74 ± 0.1 g
COc1ccc(C2CC(c3ccc(C)cc3)=Nc3ccccc3S2)cc1OC (stereo not drawn)		Wistar rat, STZ-induced diabetes	oral, 20 mg/kg once daily, day 28		blood glucose	104 mg/dL
Cc1ccc(-c2oc3ccccc3c(=O)c2OCc2ccccc2)cc1		diabetic rat	5 mg/kg, day 21, p-nitrophenyl β-glucoside induced		blood glucose	173 ± 4.8 mg/dL
COc1cc(Cn2ccc3cc(C(=O)NCC45CC6CC(CC(C6)C4)C5)ccc32)ccc1C(=O)NO	immunohistochemistry, item: amyloid-beta (3D6)	5xFAD mouse, brain	intraperitoneal, 10 mg/kg once daily, 2 months	reference: vehicle	amyloid plaque number	decreased
CC[C@H]1[C@@H](O)[C@@H]2[C@H](CC[C@]3(C)[C@@H]([C@H](C)CCOS(=O)(=O)[O-])CC[C@@H]23)[C@@]2(C)CC[C@@H](O)C[C@@H]12.[Na+]	immunohistochemistry, item: lipid	ob/ob NASH mouse model, liver	10 mg/kg, 16 weeks		fractional area	12.5 ± 1.5%
CN(C)c1ccc(-c2oc3ccccc3c(=O)c2OCc2ccccc2)cc1		diabetic rat	7.5 mg/kg, day 1, p-nitrophenyl β-glucoside induced		blood glucose	468 ± 5.48 mg/dL
